{"data": "Published values of several laboratories", "note": "Every numbered part comes from another study and shows a few of its results, in no order.", "UniProt P30291, sequence (whole entry, looked up)": "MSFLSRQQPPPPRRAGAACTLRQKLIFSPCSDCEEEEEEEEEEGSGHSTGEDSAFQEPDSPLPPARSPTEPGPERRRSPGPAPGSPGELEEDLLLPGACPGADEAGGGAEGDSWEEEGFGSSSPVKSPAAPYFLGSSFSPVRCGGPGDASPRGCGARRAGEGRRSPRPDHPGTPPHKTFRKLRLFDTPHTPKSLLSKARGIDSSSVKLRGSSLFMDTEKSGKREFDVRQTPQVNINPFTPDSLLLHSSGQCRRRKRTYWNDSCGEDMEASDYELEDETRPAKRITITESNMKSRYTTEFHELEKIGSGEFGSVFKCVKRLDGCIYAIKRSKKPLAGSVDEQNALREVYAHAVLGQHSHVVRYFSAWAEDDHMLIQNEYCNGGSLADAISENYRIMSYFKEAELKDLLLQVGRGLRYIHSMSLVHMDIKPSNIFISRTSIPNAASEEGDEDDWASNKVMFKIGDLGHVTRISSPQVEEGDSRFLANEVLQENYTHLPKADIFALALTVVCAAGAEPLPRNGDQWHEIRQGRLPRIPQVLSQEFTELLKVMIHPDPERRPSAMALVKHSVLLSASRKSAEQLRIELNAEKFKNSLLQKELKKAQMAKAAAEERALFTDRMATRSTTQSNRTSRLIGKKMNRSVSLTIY", "UniProt Q02763, sequence (whole entry, looked up)": "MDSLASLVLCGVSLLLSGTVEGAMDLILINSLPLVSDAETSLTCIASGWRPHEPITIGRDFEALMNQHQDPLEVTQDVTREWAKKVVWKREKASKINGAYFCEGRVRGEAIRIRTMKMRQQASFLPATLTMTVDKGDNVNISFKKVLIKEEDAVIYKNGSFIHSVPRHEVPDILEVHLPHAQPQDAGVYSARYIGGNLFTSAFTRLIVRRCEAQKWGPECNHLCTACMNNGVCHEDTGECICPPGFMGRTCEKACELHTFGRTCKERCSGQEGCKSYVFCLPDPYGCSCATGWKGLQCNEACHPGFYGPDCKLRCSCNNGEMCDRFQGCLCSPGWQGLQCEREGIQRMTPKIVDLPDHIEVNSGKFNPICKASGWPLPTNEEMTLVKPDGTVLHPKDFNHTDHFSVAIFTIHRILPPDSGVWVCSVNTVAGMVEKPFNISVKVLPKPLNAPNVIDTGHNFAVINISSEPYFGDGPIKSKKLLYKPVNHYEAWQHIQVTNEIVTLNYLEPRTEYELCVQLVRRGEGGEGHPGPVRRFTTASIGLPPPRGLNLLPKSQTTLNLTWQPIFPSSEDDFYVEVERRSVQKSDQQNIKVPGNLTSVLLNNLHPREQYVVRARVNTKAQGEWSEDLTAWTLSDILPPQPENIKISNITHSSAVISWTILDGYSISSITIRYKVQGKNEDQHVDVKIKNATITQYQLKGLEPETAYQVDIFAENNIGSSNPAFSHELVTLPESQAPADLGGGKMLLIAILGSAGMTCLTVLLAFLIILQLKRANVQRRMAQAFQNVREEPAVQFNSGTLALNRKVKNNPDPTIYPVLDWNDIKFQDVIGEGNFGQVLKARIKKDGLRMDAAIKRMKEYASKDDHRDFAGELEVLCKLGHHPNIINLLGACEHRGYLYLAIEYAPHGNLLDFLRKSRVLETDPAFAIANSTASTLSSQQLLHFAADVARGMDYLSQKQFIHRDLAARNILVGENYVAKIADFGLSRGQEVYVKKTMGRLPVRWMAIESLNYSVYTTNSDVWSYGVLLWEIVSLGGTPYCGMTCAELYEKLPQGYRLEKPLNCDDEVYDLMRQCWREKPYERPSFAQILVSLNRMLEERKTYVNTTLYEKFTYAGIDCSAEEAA", "UniProt Q8IYT8, sequence (whole entry, looked up)": "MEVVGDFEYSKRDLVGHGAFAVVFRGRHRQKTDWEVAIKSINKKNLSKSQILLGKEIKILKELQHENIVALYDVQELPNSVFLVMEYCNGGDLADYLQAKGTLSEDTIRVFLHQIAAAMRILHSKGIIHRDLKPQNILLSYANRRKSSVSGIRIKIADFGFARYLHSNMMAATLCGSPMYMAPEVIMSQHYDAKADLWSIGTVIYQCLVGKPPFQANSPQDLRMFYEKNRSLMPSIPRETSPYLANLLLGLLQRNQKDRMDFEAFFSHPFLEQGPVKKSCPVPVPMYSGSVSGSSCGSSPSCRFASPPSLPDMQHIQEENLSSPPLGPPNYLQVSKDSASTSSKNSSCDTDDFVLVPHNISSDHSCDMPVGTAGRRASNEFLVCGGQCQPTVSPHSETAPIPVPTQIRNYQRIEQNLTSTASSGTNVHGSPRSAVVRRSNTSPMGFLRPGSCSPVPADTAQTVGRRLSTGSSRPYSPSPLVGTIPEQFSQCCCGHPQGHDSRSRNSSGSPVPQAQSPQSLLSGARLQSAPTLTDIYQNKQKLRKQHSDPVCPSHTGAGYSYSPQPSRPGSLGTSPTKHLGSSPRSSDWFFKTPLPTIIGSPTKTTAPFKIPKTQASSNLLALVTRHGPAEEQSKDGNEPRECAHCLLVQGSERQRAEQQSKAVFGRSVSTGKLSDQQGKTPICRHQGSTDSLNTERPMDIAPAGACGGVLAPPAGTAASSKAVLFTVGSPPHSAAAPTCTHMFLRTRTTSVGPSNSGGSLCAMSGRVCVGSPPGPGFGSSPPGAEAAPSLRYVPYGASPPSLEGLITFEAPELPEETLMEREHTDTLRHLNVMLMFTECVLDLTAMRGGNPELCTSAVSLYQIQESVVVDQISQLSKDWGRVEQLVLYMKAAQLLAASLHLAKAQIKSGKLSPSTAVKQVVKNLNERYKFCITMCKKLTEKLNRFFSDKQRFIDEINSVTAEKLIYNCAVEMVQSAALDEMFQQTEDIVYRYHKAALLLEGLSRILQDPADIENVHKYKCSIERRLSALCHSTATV", "UniProt Q99755, sequence (whole entry, looked up)": "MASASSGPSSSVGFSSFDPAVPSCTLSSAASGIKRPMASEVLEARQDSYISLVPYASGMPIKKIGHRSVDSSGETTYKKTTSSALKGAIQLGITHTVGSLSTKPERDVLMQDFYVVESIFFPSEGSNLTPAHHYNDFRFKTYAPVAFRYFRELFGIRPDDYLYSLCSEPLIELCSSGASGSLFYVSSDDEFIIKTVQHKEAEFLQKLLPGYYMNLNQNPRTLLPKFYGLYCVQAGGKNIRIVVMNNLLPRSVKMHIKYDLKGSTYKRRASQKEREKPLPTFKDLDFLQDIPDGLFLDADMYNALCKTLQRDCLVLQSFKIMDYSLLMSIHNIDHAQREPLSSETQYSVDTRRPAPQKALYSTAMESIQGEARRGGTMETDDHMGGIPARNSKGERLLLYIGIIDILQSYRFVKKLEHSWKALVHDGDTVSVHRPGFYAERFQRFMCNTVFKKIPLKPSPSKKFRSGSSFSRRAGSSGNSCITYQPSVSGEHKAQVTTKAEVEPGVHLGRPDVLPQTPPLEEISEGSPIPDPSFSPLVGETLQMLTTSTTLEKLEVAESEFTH", "UniProt P50750, sequence (whole entry, looked up)": "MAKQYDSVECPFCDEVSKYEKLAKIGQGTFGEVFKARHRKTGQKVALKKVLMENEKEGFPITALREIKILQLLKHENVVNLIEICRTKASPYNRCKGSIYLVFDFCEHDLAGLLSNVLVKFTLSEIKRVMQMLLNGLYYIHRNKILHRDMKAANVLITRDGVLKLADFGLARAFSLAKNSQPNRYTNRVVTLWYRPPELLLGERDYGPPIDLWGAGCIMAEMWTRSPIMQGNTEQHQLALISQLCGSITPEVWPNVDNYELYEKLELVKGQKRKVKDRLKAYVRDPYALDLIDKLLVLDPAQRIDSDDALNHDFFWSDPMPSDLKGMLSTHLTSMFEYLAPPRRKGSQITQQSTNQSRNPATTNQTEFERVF", "UniProt Q15349, sequence (whole entry, looked up)": "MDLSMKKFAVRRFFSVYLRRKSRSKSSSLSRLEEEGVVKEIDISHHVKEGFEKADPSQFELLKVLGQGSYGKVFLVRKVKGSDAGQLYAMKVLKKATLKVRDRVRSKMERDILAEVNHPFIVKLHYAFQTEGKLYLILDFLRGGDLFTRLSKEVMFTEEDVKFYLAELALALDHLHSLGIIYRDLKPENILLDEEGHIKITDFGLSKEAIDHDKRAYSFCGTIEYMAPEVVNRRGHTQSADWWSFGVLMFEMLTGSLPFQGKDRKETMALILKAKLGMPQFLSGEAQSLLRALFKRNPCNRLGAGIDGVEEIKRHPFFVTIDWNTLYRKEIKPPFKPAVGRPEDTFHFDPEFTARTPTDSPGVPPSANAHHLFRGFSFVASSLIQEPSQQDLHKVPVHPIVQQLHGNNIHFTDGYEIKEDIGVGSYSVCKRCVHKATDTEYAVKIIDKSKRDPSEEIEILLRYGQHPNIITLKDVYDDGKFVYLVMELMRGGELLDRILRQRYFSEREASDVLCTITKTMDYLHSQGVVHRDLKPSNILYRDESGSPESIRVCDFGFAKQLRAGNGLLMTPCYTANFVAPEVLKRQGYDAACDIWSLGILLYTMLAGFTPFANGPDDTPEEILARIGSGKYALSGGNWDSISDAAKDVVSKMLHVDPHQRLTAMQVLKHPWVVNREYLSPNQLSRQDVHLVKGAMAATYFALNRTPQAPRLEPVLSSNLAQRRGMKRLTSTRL"}
{"data": "Study 1", "target": "RING finger protein unkempt homolog, zinc fingers 1-6, GST-SBP tag (UNK, Homo sapiens, UniProt Q9C0B0, residues 30-357)", "technique": "RNA Bind-n-Seq", "molecule type": "RNA", "medium": "in vitro", "tested at": "not given", "notes": "RNA with constant flanks, human-mouse chimeric sites, ends assumed", "reference": "input RNA pool", "direction": "higher = stronger binding", "constant ends, left off below": "GGGAGUUCUACAGUCCGACGAUC … CAACAGAGGAUUGAGCAUCA", "UniProt Q9C0B0, sequence (30-357, looked up)": "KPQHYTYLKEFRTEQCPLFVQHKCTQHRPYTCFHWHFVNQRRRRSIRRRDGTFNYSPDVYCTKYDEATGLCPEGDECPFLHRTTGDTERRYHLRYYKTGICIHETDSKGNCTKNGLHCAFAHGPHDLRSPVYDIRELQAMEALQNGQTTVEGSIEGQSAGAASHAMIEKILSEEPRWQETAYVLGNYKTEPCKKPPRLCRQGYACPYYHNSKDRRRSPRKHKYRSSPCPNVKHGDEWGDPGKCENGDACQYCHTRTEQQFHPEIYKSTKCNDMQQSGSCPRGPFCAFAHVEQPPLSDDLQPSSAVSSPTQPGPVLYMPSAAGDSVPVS"}
{"Strand": "AGAUUCCCCCUCCUGAGACCUCCUCCGAAGUUGGAGUCUCUUACAGAUGCCUCAUCCCCUGUUAGCGUUUUAGUUUGGACCACACAACCUUGGACAAUUCCCGCCAACCAGGCAAUUUGC", "bound/input enrichment [ratio]": 3.48}
{"Strand": "AUAAAGGCUAUGUUGAGUGGUCCAGGUCAGUUUGCUGAGAACGAAACCAACGAGGUCAAUUUUAGAGAGAUACCUUCACAUGUGCUAUCAAAAGUGUGCAUGUAUUUUACCUACAAGGUC", "bound/input enrichment [ratio]": 0.0879}
{"Strand": "GCUCUUGGGAAUGUAAUCAGCGCCUUGGGAGACAAGAGCAAGAGAGCCACCCAUGUCCCUUACAGAGACUCUAAGCUGACAAGACUCUUGCAGGAUUCCCUUGGGGGUAAUAGCCAAACC", "bound/input enrichment [ratio]": 0.167}
{"Strand": "CUCAGAGAUGUGGCAUAUCAGUAUGUGAAAAAGGGGGCUCGUAUAUUUGUGGAAGGGAAAAUAGACUAUGGUGAAUACAUGGAUAAAAACAAUGUGAGGCGGCAAGCAACAACAAUCAUA", "bound/input enrichment [ratio]": 0.54}
{"Strand": "GACUUGGGACCGUCCUGGGCUAGUACAAAUAGCGGCAUGGAGGCUCAGAGAGGAAAGUUUGUUAGUGGAGGCAGUGGUAGAGGCCGUCAUGUACGGUCCUUUACUCGAUAGAUGUGUUCU", "bound/input enrichment [ratio]": 0.681}
{"Strand": "AACUUUGUGCAUCGGUUUCCCUUUGUAGCUGUUUCAAUUGGCUUCCUUGUGAAUAAAGAGAUGGAGUUUGGAAUUGUGUACAGCUGUGUGGAAGGCAAGAUGUACACCGGCAGGAAAGGG", "bound/input enrichment [ratio]": 0.282}
{"Strand": "UCAGGAACUCAGACAAAUAUGAAUGUAAAUGAAGUCAUUAGCAACAGAGCAAUUGAAAUGUUAGGAGGUGAACUUGGCAGCAAGAAGCCUGUGCACCCCAAUGAUCAUGUUAACAAAAGC", "bound/input enrichment [ratio]": 0.442}
{"Strand": "GUCAACAGCUGCCUCAACCCCAUCCUCUACGCCUUCCUGGAUGAGAACUUCAAGGCCUGCUUCCGCAAGUUCUGCUGUGCAUCUGCCCUGCACCGGGACGUGCAGGUUUCUGAUCGUGUG", "bound/input enrichment [ratio]": 0.252}
{"data": "Study 2", "SMILES": "O=c1cc(N2CCOCC2)oc2c1ccc1ccccc12", "read-out": "enzyme activity", "mode": "inhibitor", "tested at": "0.5 µM", "reference": "control"}
{"target": "Wee1-like protein kinase (WEE1, Homo sapiens, UniProt P30291)", "remaining activity [%]": 101}
{"target": "Serine/threonine-protein kinase Nek6 (NEK6, Homo sapiens, UniProt Q9HC98)", "remaining activity [%]": 92.5}
{"target": "Serine/threonine-protein kinase ULK2 (ULK2, Homo sapiens, UniProt Q8IYT8)", "remaining activity [%]": 94.9}
{"target": "Tyrosine-protein kinase ABL2 (ABL2, Homo sapiens, UniProt P42684)", "remaining activity [%]": 101}
{"target": "Ribosomal protein S6 kinase alpha-2 (RPS6KA2, Homo sapiens, UniProt Q15349)", "remaining activity [%]": 98.8}
{"target": "Mitogen-activated protein kinase kinase kinase 14 (MAP3K14, Homo sapiens, UniProt Q99558)", "remaining activity [%]": 81.2}
{"target": "Angiopoietin-1 receptor (TEK, Homo sapiens, UniProt Q02763)", "remaining activity [%]": 94.4}
{"target": "Fibroblast growth factor receptor 3 (FGFR3, Homo sapiens, UniProt P22607)", "remaining activity [%]": 98.2}
{"target": "Glycogen synthase kinase-3 beta (GSK3B, Homo sapiens, UniProt P49841)", "remaining activity [%]": 124}
{"target": "Tyrosine-protein kinase Mer (MERTK, Homo sapiens, UniProt Q12866)", "remaining activity [%]": 96.4}
{"target": "Casein kinase I isoform gamma-3 (CSNK1G3, Homo sapiens, UniProt Q9Y6M4)", "remaining activity [%]": 98.1}
{"target": "Dual specificity mitogen-activated protein kinase kinase 2 (MAP2K2, Homo sapiens, UniProt P36507)", "remaining activity [%]": 100}
{"target": "Ephrin type-A receptor 3 (EPHA3, Homo sapiens, UniProt P29320)", "remaining activity [%]": 112}
{"data": "Study 3", "Compound": "NS(=O)(=O)c1cc(NC(=O)Cc2ccccc2)ccc1Oc1cccc(Cl)c1", "technique": "competition with immobilised ligand", "tested at": "1 µM"}
{"target": "Protein-tyrosine kinase 6 (PTK6, Homo sapiens, UniProt Q13882)", "read-out": "cell-free assay", "remaining binding [%]": 96}
{"target": "Phosphatidylinositol 4,5-bisphosphate 3-kinase catalytic subunit beta isoform (PIK3CB, Homo sapiens, UniProt P42338)", "read-out": "cell-free assay", "remaining binding [%]": 84}
{"target": "Mitogen-activated protein kinase 3 (MAPK3, Homo sapiens, UniProt P27361)", "read-out": "cell-free assay", "remaining binding [%]": 94}
{"target": "Leucine-rich repeat serine/threonine-protein kinase 2 (LRRK2, Homo sapiens, UniProt Q5S007, G2019S)", "read-out": "cell-free assay", "remaining binding [%]": 100}
{"target": "Serine/threonine-protein kinase B-raf (BRAF, Homo sapiens, UniProt P15056, V600E)", "read-out": "cell-free assay", "remaining binding [%]": 89}
{"target": "Ephrin type-B receptor 6 (EPHB6, Homo sapiens, UniProt O15197)", "read-out": "cell-free assay", "remaining binding [%]": 92}
{"target": "Phosphatidylinositol 4-phosphate 5-kinase type-1 alpha (PIP5K1A, Homo sapiens, UniProt Q99755)", "read-out": "cell-free assay", "remaining binding [%]": 100}
{"target": "Protein-tyrosine kinase 2-beta (PTK2B, Homo sapiens, UniProt Q14289)", "read-out": "cell-free assay", "remaining binding [%]": 79}
{"target": "LIM domain kinase 1 (LIMK1, Homo sapiens, UniProt P53667)", "read-out": "cell-free assay", "remaining binding [%]": 87}
{"target": "Bone morphogenetic protein receptor type-1A (BMPR1A, Homo sapiens, UniProt P36894)", "read-out": "binding", "remaining binding [%]": 69}
{"target": "Calcium/calmodulin-dependent protein kinase type 1B (PNCK, Homo sapiens, UniProt Q6P2M8)", "read-out": "cell-free assay", "remaining binding [%]": 83}
{"target": "Serine/threonine-protein kinase PAK 5 (PAK5, Homo sapiens, UniProt Q9P286)", "read-out": "cell-free assay", "remaining binding [%]": 63}
{"target": "Cyclin-dependent kinase 9 (CDK9, Homo sapiens, UniProt P50750)", "read-out": "cell-free assay", "remaining binding [%]": 92}
{"target": "Serine/threonine-protein kinase 35 (STK35, Homo sapiens, UniProt Q8TDR2)", "read-out": "cell-free assay", "remaining binding [%]": 99}
{"target": "Death-associated protein kinase 2 (DAPK2, Homo sapiens, UniProt Q9UIK4)", "read-out": "cell-free assay", "remaining binding [%]": 90}
{"target": "Focal adhesion kinase 1 (PTK2, Homo sapiens, UniProt Q05397)", "read-out": "cell-free assay", "remaining binding [%]": 96}
{"data": "Study 4", "target": "TAR DNA-binding protein 43, full length, His tag (TARDBP, Homo sapiens, UniProt Q13148, residues 1-414)", "technique": "RNA Bind-n-Seq", "molecule type": "RNA", "medium": "in vitro", "tested at": "20 nM", "notes": "6-mer, flanks averaged, single round", "added": "150 mM KCl", "reference": "input library", "direction": "higher = stronger binding"}
{"Strand": "AUGCGU", "6-mer enrichment (R)": 0.917}
{"Strand": "UCUUAC", "6-mer enrichment (R)": 0.546}
{"Strand": "AUUCGG", "6-mer enrichment (R)": 0.816}
{"Strand": "GCAAGC", "6-mer enrichment (R)": 0.927}
{"Strand": "CGGUUA", "6-mer enrichment (R)": 0.712}
{"Strand": "AUAUUA", "6-mer enrichment (R)": 0.623}
{"Strand": "UCGAGA", "6-mer enrichment (R)": 0.787}
{"Strand": "CGCUCU", "6-mer enrichment (R)": 0.575}
{"note": "Repeated from above (study 2):"}
{"target": "Wee1-like protein kinase (WEE1, Homo sapiens, UniProt P30291)", "remaining activity [%]": 101}
{"target": "Serine/threonine-protein kinase Nek6 (NEK6, Homo sapiens, UniProt Q9HC98)", "remaining activity [%]": 92.5}
{"target": "Serine/threonine-protein kinase ULK2 (ULK2, Homo sapiens, UniProt Q8IYT8)", "remaining activity [%]": 94.9}
{"target": "Tyrosine-protein kinase ABL2 (ABL2, Homo sapiens, UniProt P42684)", "remaining activity [%]": 101}
{"target": "Ribosomal protein S6 kinase alpha-2 (RPS6KA2, Homo sapiens, UniProt Q15349)", "remaining activity [%]": 98.8}
{"target": "Mitogen-activated protein kinase kinase kinase 14 (MAP3K14, Homo sapiens, UniProt Q99558)", "remaining activity [%]": 81.2}
{"target": "Angiopoietin-1 receptor (TEK, Homo sapiens, UniProt Q02763)", "remaining activity [%]": 94.4}
